Measurements pooled from the literature.
Every numbered part comes from another study and shows a few of its results, in no order.

Series 1
Target: Interferon regulatory factor 7, full length, phosphomimetic (IRF7, Homo sapiens, UniProt Q92985, residues 1-503, S101K/S471D/S472D/S475D/S476D/S477D/S483D/S484D/S487D)
UniProt Q92985, sequence (whole entry, unmodified, looked up): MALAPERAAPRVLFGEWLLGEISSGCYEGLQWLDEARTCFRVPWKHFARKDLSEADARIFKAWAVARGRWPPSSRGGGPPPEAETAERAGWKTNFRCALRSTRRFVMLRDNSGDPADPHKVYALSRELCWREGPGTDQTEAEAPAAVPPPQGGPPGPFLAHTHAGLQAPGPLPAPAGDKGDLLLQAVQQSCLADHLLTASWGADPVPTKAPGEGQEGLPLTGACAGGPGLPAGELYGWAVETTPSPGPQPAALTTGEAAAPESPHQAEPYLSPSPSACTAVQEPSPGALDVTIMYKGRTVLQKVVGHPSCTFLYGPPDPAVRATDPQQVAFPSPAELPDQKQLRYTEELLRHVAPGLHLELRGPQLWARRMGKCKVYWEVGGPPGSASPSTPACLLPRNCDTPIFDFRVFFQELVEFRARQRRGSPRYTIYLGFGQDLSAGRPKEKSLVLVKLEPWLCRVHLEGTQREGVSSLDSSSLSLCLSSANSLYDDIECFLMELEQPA
Method: protein-binding microarray
Molecule type: double-stranded DNA, one strand shown
Matrix: in vitro
Tested at: 250 nM
Notes: 60-bp whole probe
Added: salmon DNA 0.4 mg/ml
Baseline: random background probes
Direction: higher = stronger binding
All sequences stand within: GCCTAGCAC … GTCTTGATTCGCTTGACGCTGCTG
With `TTAGATATCAGACTGAATTAGTGCTAG` the log fluorescence was -0.0161 z-score.
The log fluorescence of `TTAGGACTGGGGTTTCGGTTAGTGCTA` is reported as 5.66 z-score.
`TTAGATCTGAGTATCGATTAGTGCTAG` has a log fluorescence of 0.715 z-score.
`TTAGAACTGGGGACTGGATTAGTGCTA` has a log fluorescence of -0.255 z-score.
With `TTAGGTCTGGGACTGGGTTAGTGCTAG` the log fluorescence was -0.373 z-score.
With `TCAACTAGGAGTTTTCAGACTGTGCTA` the log fluorescence was -0.628 z-score.
`TCAGCTTTCCAATTCTCACTGTGCTAG` gave a log fluorescence of 0.779 z-score.
The log fluorescence of `GACGGTATCGACTATCGCGACGTGCTA` is reported as -0.369 z-score.
`TTAGGTATCGGTTATCGGTTAGTGCTA` has a log fluorescence of 1.92 z-score.
The log fluorescence of `GACGGACTGGTACTGGGGACGTGCTAG` is reported as -0.448 z-score.
With `GACGGACTGGCCTATCGGGACGTGCTA` the log fluorescence was -0.493 z-score.
The log fluorescence of `TCATTTTGCACTCTCTAACTGTGCTAG` is reported as 1.4 z-score.
`CTAGATATCAGTTTCGATTAGTGCTAG` has a log fluorescence of 8.93 z-score.
`GACGTTCTCCTTTTCCTGACGTGCTAG` gave a log fluorescence of 1.49 z-score.
`GACGGTTTCGGTTTCGGTACGTGCTAG` gave a log fluorescence of 14.6 z-score.
`GGCGATATCAGTATCGAGACGTGCTAG` has a log fluorescence of -0.252 z-score.
The log fluorescence of `TCAGGAAACCGGAAAGGCACTGTGCTA` is reported as -0.343 z-score.
`TCAATTTTCCAAATGCCACTGTGCTAG` has a log fluorescence of 1.31 z-score.
The log fluorescence of `TCAGTTTTCACTTTTCCACTGTGCTAG` is reported as 3.15 z-score.
The log fluorescence of `TCGCACACATACGGCTTCTCGTGCTAG` is reported as -0.0944 z-score.
The log fluorescence of `TTAGGTCGCCTTATCCTTTAGTGCTAG` is reported as -0.102 z-score.
With `TTCTCTTTTATTTTTTTTATGTGCTAG` the log fluorescence was 1.67 z-score.
`GACGATAACGGGTTTCGAGACGTGCTA` gave a log fluorescence of 2.59 z-score.
With `TTAGATTTCAAACTGGATTAGTGCTAG` the log fluorescence was 4.53e-06 z-score.
For `TACGGTTTCCTACTGCTGACGTGCTAG`, the log fluorescence was 1.63 z-score.

Series 2
Target: Sal-like protein 4, full length isoform B (SALL4, Homo sapiens, UniProt Q9UJQ4-2, residues 1-616)
Method: universal PBM
Molecule type: double-stranded DNA, one strand shown
Matrix: in vitro
Tested at: not given
Notes: 8-mer, flanks averaged, mean of replicates
Direction: higher = stronger binding
With `ACTGCGCC` the E-score was -0.326.
With `GCTAATGA` the E-score was -0.00831.
`CTCACTCA` has an E-score of -0.0241.
`CCCCAATA` has an E-score of 0.174.
`GTCATAAC` gave an E-score of 0.25.
`CCGTGACA` gave an E-score of -0.0552.
The E-score of `GACGTTCA` is reported as -0.00365.
With `AGACGAAA` the E-score was 0.182.
The E-score of `ACTTCGCA` is reported as -0.0448.
The E-score of `AGGCGGTC` is reported as -0.211.
`GTCTAAAA` has an E-score of 0.046.
With `AATTATTC` the E-score was 0.394.
`GGATTCGA` has an E-score of -0.127.
For `CGGGCCTC`, the E-score was -0.224.
With `ACGCGGGC` the E-score was -0.286.
`CCGCGGAA` has an E-score of -0.197.
`AGCGATAC` gave an E-score of 0.0414.
For `CGTTCGCC`, the E-score was -0.13.
`CCGAGGAG` gave an E-score of -0.198.
The E-score of `CATCCCGC` is reported as -0.23.
With `AGATGGCA` the E-score was 0.092.
`CCGTCGAC` has an E-score of -0.237.
For `AAACGATT`, the E-score was 0.187.
`ATGAAACA` has an E-score of 0.26.
`AGTTCCCA` gave an E-score of -0.0761.

Series 3
Target: Ras GTPase-activating protein-binding protein 1, full length (G3BP1, Homo sapiens, UniProt Q13283)
UniProt Q13283, sequence (whole entry, looked up): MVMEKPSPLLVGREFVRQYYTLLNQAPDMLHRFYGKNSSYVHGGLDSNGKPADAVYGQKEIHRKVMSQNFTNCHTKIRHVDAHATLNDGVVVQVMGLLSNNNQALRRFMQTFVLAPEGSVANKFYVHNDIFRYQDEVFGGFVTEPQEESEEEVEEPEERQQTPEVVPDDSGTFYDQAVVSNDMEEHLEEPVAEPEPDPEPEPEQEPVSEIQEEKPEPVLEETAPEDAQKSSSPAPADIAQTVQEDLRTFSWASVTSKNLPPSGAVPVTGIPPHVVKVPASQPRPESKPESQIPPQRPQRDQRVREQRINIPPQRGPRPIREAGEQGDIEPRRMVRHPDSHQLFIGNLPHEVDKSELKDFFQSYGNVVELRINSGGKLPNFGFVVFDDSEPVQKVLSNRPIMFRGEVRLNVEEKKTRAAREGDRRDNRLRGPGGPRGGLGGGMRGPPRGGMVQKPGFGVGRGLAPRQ
Method: RNA Bind-n-Seq
Molecule type: RNA
Matrix: in vitro
Tested at: 200 nM
Notes: whole 134-nt RNA, ends assumed
Added: 150 mM LiCl
Baseline: input library
Direction: higher = stronger binding
All molecules: 7-deaza-guanosine replaces G
All sequences stand within: GGGAGUUCUACAGUCCGACGAUC … UGGAAUUCUCGGGUGUCAAGG
For `AAGUCCUGUGCUACACAUCGUAUGUACCGAAUCGGGCCCCGGGCCCCGGCCCCGGGAAAGUAUUAUGUUACGCCGUUCGGAUCUGCACUU`, the log2 enrichment was -1.13.
With `UCCUCAAGUCCUGUGCUACACAUCGUAUGUACCGAAUCGGUGGUGGGUGGGAAAGUAUUAUGUUACGCCGUUCGGAUCUGCACUUCCAGC` the log2 enrichment was 0.943.
`AGUCCUGUGCUACACAUCGUAUGUACCGAAUCGGGUGGGAAAAAAAGGGUUUUUGGGAAAGUAUUAUGUUACGCCGUUCGGAUCUGCACU` has a log2 enrichment of -1.35.
`UGCAUGUGCACUGAUAGGCCAAGGCCAGCUGAACCAGGCCAUGAAAAUCCUACAAAAAGCUGAAGGUUGGAAGUUUGUUAAACUUAUCUG` gave a log2 enrichment of -1.
For `CCUCAAGUCCUGUGCUACACAUCGUAUGUACCGAAUCGUGUGUGUGUGUGUGUAAAGUAUUAUGUUACGCCGUUCGGAUCUGCACUUCCA`, the log2 enrichment was -0.332.
The log2 enrichment of `UGGGAGGUGGAUUUUGUUUAUUUUUUUAGCUCAUUUCCAGGGGUGGGAAUUUUUUUUUAAGAUGUGUCAUGAAUAAAGUUGUUUUUGAAA` is reported as -0.0251.
`AUGCACUUGACAUAGUAGCAAAUUGGUUCUGAAUUAUGCAACUGUUUGCUAUUUAGUAAACUAGCAAAUGAUGCAUGUAUUUUGUUUUUC` has a log2 enrichment of -2.28.
`CAAGUCCUGUGCUACACAUCGUAUGUACCGAAUCGGGCCCGGGCCCGGGCCCGGGGAAAGUAUUAUGUUACGCCGUUCGGAUCUGCACUU` gave a log2 enrichment of -0.568.
The log2 enrichment of `CUGUGCUACACAUCGUAUGUACCGAAUCGGGGAAAAAAAGGGGUUUUUUUGGGGAAAGGGGAAAGUAUUAUGUUACGCCGUUCGGAUCUG` is reported as -1.32.
The log2 enrichment of `CAAGUCCUGUGCUACACAUCGUAUGUACCGAAUCGGGUUUGGGUUUGGGGUUUGGGAAAGUAUUAUGUUACGCCGUUCGGAUCUGCACUU` is reported as -1.03.
The log2 enrichment of `AAGUCCUGUGCUACACAUCGUAUGUACCGAAUCGGGCCCCGGGGCCCCGGCCCCGGGAAAGUAUUAUGUUACGCCGUUCGGAUCUGCACU` is reported as -1.49.

Series 4
Target: Histone acetyltransferase KAT6A, winged helix 2, GST fusion (KAT6A, Homo sapiens, UniProt Q92794, residues 85-181)
Method: protein binding microarray
Molecule type: double-stranded DNA, one strand shown
Matrix: in vitro
Tested at: not given
Notes: 8-mer, flanks averaged, mean of 2 arrays, mostly near background
Baseline: not given
Direction: higher = stronger binding
Residues (chain): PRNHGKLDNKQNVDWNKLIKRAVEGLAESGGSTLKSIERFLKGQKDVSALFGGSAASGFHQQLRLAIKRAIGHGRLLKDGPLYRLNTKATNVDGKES
With `AGAGACAG` the E-score was -0.0543.
With `CCATCAAG` the E-score was -0.084.
`CGGTGAGA` gave an E-score of 0.103.
The E-score of `ACAGGAGT` is reported as -0.0696.
For `AAGTCTAC`, the E-score was -0.265.
With `ACAAAAAC` the E-score was 0.137.
`CGATACAC` gave an E-score of -0.0956.
With `AAGTCAAG` the E-score was -0.28.
`ATTAATGA` has an E-score of 0.0969.
`CACTACGA` gave an E-score of 0.118.
`GTCGCTAA` has an E-score of 0.0845.
The E-score of `AAGCCTGT` is reported as -0.0513.
`CTAAGGAC` has an E-score of -0.0451.
With `AAGATCCT` the E-score was 0.0221.
For `CGTAGAGA`, the E-score was -0.101.
For `ATGACCAG`, the E-score was -0.103.
`AAAGGCTG` has an E-score of -0.0343.

Some of these lines once more (series 1):
`TTAGAACTGGGGACTGGATTAGTGCTA` has a log fluorescence of -0.255 z-score.
With `TTAGGTCTGGGACTGGGTTAGTGCTAG` the log fluorescence was -0.373 z-score.
With `TCAACTAGGAGTTTTCAGACTGTGCTA` the log fluorescence was -0.628 z-score.
`TCAGCTTTCCAATTCTCACTGTGCTAG` gave a log fluorescence of 0.779 z-score.
The log fluorescence of `GACGGTATCGACTATCGCGACGTGCTA` is reported as -0.369 z-score.
`TTAGGTATCGGTTATCGGTTAGTGCTA` has a log fluorescence of 1.92 z-score.
The log fluorescence of `GACGGACTGGTACTGGGGACGTGCTAG` is reported as -0.448 z-score.
With `GACGGACTGGCCTATCGGGACGTGCTA` the log fluorescence was -0.493 z-score.
The log fluorescence of `TCATTTTGCACTCTCTAACTGTGCTAG` is reported as 1.4 z-score.
`CTAGATATCAGTTTCGATTAGTGCTAG` has a log fluorescence of 8.93 z-score.
